Published values from different studies.
Numbered parts are unrelated; each lists some results of a single study.

Block 1 — method: protein-binding microarray; form: double-stranded DNA, one strand shown; sample: in vitro; tested at: not given; reading: higher = stronger binding
Target: Protein C-ets-1 (ETS1, Homo sapiens, UniProt P14921, residues 1-441, K379A, full length assumed)
Setting: k-mer, scored over probes, only values ≥0.25
Construct (chain): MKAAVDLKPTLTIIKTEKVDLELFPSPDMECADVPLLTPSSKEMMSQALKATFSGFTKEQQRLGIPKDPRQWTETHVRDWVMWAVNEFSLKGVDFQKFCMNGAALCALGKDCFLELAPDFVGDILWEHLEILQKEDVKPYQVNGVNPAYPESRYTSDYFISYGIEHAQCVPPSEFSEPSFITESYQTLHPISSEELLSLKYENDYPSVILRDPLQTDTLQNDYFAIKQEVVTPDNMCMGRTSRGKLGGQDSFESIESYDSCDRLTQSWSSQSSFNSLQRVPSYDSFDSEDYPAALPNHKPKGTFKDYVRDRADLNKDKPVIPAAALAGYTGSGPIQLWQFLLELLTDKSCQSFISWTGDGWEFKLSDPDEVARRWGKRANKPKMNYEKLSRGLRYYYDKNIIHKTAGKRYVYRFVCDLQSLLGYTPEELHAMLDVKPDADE
Oligonucleotide | E-score
AGCGGTTA | 0.254
AGACCGGG | 0.423
AACCGGTA | 0.459
ACCGGCAG | 0.367
CGCCGGGA | 0.264
CCGACGGA | 0.337
GCCGGCAA | 0.327
ACCGGCCG | 0.325
CGGTAGTA | 0.294
AATTTCCG | 0.303
CCGGTACA | 0.406
TAACCGGA | 0.38
GGTATACA | 0.272
CGGTCTGA | 0.276
AAGCCGGT | 0.269
CCGGATAA | 0.327
CACCGGCA | 0.377

Block 2 — method: protein-binding microarray; form: double-stranded DNA, one strand shown; sample: in vitro; tested at: 2200 nM top; setting: 60-bp whole probe; with: salmon DNA 0.4 mg/ml; reference: random background probes; reading: higher = stronger binding; all sequences stand within: GCCTAGCAC … GTCTTGATTCGCTTGACGCTGCTG
Target: Interferon regulatory factor 7, full length, phosphomimetic (IRF7, Homo sapiens, UniProt Q92985, residues 1-503, S471D/S472D/S475D/S476D/S477D/S483D/S484D/S487D)
Construct (chain): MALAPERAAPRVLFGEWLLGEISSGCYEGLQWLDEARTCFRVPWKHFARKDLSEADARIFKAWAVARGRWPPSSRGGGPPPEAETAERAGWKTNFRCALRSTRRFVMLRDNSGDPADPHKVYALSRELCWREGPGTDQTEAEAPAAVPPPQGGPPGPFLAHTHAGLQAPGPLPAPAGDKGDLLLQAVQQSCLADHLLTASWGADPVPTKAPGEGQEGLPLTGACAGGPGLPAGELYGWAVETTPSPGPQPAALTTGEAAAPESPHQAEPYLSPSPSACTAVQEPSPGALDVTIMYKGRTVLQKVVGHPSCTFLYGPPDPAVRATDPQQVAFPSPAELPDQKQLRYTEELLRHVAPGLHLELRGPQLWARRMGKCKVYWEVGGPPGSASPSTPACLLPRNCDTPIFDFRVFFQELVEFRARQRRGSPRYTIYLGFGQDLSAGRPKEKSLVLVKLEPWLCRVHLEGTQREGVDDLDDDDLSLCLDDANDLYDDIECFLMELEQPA
Oligonucleotide | fitted relative affinity
TTAGGTATCGCGACTGGGTTAGTGCTA | 0.101 z-score
AACGATTCCAGTTTCGAGACGTGCTAG | 4.25 z-score
TTAGACTCCAGTTTCGATTAGTGCTAG | 6.1 z-score
GACGTACTGAGACTGGAGACGTGCTAG | 0.14 z-score
TTAGAAATGGGGTTTCGATTAGTGCTA | 2.29 z-score
TAGTTTATACTCTAGATGATGTGCTAG | 0.505 z-score
TTTACTTTCTGAATGCTCCCGTGCTAG | 6.19 z-score
GACGATTTCGGGTATCGCGACGTGCTA | 2.8 z-score
GACGAACTGGGGACTGCAGACGTGCTA | -0.0941 z-score
TTAGATTTCGGGTTTCCATTAGTGCTA | 4.71 z-score
GACGTACTGGGTATCGGGACGTGCTAG | -0.0559 z-score
TTAGGTATCGGGTATCGATTAGTGCTA | 0.321 z-score
GACGGTCTCGGTTTCGGCACGTGCTAG | 2.63 z-score
TCATCTTTCTCTGCTACCACTGTGCTA | 1.82 z-score
GACGATGTCAGTTTCGAGACGTGCTAG | 3.2 z-score
TCAAGTCTCAATATTAGACTGTGCTAG | -0.167 z-score
TCAAGACTCTCTTGTCTGACTGTGCTA | 0.00995 z-score
AACGGTCTCGGTCTCGGGACGTGCTAG | 0.206 z-score
CACGGTCTCCTACTGCTGACGTGCTAG | 0.708 z-score
GACGGTTGCCTTTTCCTGACGTGCTAG | 1.32 z-score
TTAGAACTGAGTATCGATTAGTGCTAG | -0.134 z-score
CTATATTAGGGAAGTGTGTTGTGCTAG | 0.26 z-score
GACGGTCTCGGACTGGGCACGTGCTAG | -0.73 z-score
GACCGTATCGGACTGGGGACGTGCTAG | -0.312 z-score
TTTTTTATCAATCATTTTAGTGTGCTA | 0.64 z-score

Block 3 — method: protein binding microarray; form: double-stranded DNA, one strand shown; sample: in vitro; tested at: not given; reference: not given; reading: higher = stronger binding
Target: Histone acetyltransferase KAT6A, winged helix 1, GST fusion (KAT6A, Homo sapiens, UniProt Q92794, residues 1-85)
Setting: 8-mer, flanks averaged, mean of 2 arrays, mostly near background
Residues (chain): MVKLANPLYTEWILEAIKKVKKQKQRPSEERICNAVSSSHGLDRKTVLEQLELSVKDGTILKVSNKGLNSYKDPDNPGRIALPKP
Oligonucleotide | E-score
AAAGTTTG | -0.153
CAACGCAC | 0.0725
GGACCAAC | 0.0279
GCTGACCC | 0.0262
ATACACCG | 0.186
ACAAGCGG | 0.169
GACAGATC | -0.129
GCGAACTA | -0.0708
AGGTGCTC | -0.124
GGGCAGCA | -0.0841
CGGGTGAA | 0.117
AAGATTCC | -0.0784
GTGTGCCA | -0.153
AATACACC | -0.027
GACCACCA | -0.0623
TACACCAA | -0.249
AGACGCCG | 0.291
CGATGATC | 0.00172
AATGACAG | -0.306

Block 4 — method: universal PBM; form: double-stranded DNA, one strand shown; sample: in vitro; tested at: not given; reading: higher = stronger binding
Target: Sal-like protein 4, full length isoform B (SALL4, Homo sapiens, UniProt Q9UJQ4-2, residues 1-616)
Setting: 8-mer, flanks averaged, mean of replicates
Target sequence (chain): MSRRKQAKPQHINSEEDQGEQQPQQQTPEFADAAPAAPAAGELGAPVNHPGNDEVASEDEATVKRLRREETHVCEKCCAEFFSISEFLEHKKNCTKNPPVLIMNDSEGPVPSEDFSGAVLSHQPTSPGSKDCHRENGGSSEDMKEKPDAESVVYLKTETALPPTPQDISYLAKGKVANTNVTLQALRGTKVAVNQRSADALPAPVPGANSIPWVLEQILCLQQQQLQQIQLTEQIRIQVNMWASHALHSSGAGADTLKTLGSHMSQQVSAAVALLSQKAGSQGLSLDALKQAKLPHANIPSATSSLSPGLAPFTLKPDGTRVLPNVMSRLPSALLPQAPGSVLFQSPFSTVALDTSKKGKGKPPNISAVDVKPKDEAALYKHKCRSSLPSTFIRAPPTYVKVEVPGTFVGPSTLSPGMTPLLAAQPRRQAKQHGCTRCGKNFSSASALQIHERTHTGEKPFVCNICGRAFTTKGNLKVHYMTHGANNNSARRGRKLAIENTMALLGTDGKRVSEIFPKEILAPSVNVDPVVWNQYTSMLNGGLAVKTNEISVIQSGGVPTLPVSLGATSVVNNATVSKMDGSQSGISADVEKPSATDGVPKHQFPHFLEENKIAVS
Oligonucleotide | E-score
CCCATCTC | -0.168
GGGAAGTA | 0.045
GTGCAGAA | 0.0855
AAAAGGGT | 0.0902
AAACCCTA | 0.0331
GATGTTCA | -0.0849
CAGCCGAC | -0.293
GGCTTACC | -0.291
CTGAGCTC | -0.14
CTCGCCTA | -0.139
GAAACCCC | -0.26
ATTAGACG | 0.19
GAGCCCCC | -0.37
GCCGCCTA | -0.33
AATTTGTC | 0.182
AGCTGCAA | -0.0408
CGCAGAAA | 0.00165
GAAAGTAA | 0.248
AAAAAAAG | 0.19
CAAACTAG | -0.019
AGATAAGA | 0.273
AGTGCAAC | -0.0728
ATTAGAGA | 0.132

Block 5 — method: RNAcompete; form: RNA; sample: in vitro; tested at: 20 nM; setting: 7-mer, probes averaged, single round; reference: mean of 7-mers; reading: higher = stronger binding
Target: PABPC1L2, full length, GST fusion (mouse, UniProt A0ABA7IW68)
Construct (chain): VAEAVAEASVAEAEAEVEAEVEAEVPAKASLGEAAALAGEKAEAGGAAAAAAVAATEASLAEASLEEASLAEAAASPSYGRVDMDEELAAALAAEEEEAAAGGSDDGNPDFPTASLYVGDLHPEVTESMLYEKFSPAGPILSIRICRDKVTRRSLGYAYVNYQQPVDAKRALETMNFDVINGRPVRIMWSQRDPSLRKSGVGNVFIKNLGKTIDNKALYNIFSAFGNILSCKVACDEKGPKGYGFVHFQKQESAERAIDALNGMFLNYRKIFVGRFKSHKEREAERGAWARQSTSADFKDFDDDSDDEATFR
Oligonucleotide | 7-mer Z-score
UAGUAUU | -0.199
CAGGUGU | -0.0844
GUCCACU | -0.324
CAAGUCC | -0.231
UCGCUUU | -0.36
UCACACC | -0.394
UAGCACG | -0.159
CUUCGGC | -0.286
ACGAGCG | 0.206
CUCCCCA | -0.242
AAGCGCU | 0.00979
CUGGCUA | -0.139
UUAGUUA | -0.18
CCACGAU | -0.128
CAAUGAA | 0.231
CAGGGAU | 0.135
CGCAUCA | -0.115
AAACGCU | 0.379
CCGCUAC | -0.36
CGCGUGU | -0.389
CGAUCCA | -0.159
CAAGGAA | 0.196
GGGGGCG | 0.452
AAGCAUC | 0.00436
GGCUGCC | -0.296

Block 6 — method: RNA Bind-n-Seq; form: RNA; sample: in vitro; tested at: 365 nM; reference: no-protein control; reading: higher = stronger binding
Target: RNA binding protein fox-1 homolog 2, RRM domain, GST-SBP tag (RBFOX2, Homo sapiens, UniProt O43251-10, residues 100-194)
Setting: natural RNA segment, single round, ends assumed
All sequences stand within: GGGAGUUCUACAGUCCGACGAUC … UGGAAUUCUCGGGUGCCAA
Residues (chain): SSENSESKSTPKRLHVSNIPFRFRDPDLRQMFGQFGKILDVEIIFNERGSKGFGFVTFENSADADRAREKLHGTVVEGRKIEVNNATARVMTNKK
Oligonucleotide | RBNS enrichment (R)
GGUUUAGUUCUGUCUUUUUUCUCCUUUUUUCUAAAUGCUGGUAAAUAUUUACAUUCAGCCAGGGAAGAGGAGGCCAGAGGUCGGGCCAGCUGCCCCAUUCUUUUAACGUU | 0.348
CGGCUCUUGUAGAGGGCAUCCCCAGAUGUCCAAACCCUUUCCUGUGUACUGUUGAAAGCAUUGUUCUUCAGGGCCCUUGUCCAACAGUGGCCCGUGCAGUCUGGGGUCCA | 1.88
CUCCACGUGGCCCACAGGCCUGACCACAGGGGCUGUGGGUCCUGCGUCCCCUUCCUCGGGUGAGCCUGGCCUGUCCCGUUCAGCCGUUGGGCCCAGGCUUCCUCCCCUCC | 0.261
UCUGUGUUUGAGAGGGGGUCUGCCAUUCCUGCUUGGGGACUGGUGGGGAAGAGGGCCAGGACAUCUUCUGAGCCAGGACGUCCCUGAGGCUCCACCUCCAAGCUCAGACA | 1.11
CCAGGCAACUGGCUGUCUUUGGGAGGGGUGGCUCUUAAGACUCUACCUCUGAUUGCAUCACUAGGACUAACUACAAGCUGGCUGGGGAUACUCCCUUGUGUGUUCUGUCC | 2.43
CAGUGUUUUUACGUUUUCAGUUUAAAGGACAAAGGGCGUGCUCUCUCAGUUUGCUGUAAGAUUGUAUUCUGUAGAUAUGUUUCCAUGUACAUAAAGGAAAAUAUAUAUCA | 1.27
GGGGAAUACAGCUCUCAGUGAUCAGCAGGGAGUUUAUUUGAGGACAUCAGUCACCUUUGGGGUUGCCAUGUACAAUGAGAUUUAUAAUCAUGAUACUCUUCGGUGGUAGU | 0.446
CUGCCUUCUUUCCCUGUCCCAUGGGCACAGUCCUCACAGGGAGUGGCCUCCUCUCUCCAGUGAUGUAAGUGAAUGGAAGCCAUCACUGGCUGCACAUACCUUUUUCAAAA | 0.532
UUCUGGCCUAUUGUCUGCUUCGCUGUGUAGGUAGCCUGACUUGACAGAGGUUUCUCCUGGUUUUCCUUGUUUCUACCCAGAGAAUUUCCUACUCCCCUUUCCCUCCAAAU | 1.45
AUUUAGGCUUCAGAAUAUAUCCGAGAGGUGGGGAGGGUCCCUUGGAAGCUGGUGAAGUCCUGUUCUUAUUAUGAAUCCAUUCAUUCAAGAAAAUAGCCUGUUGCACAUUU | 2.02
GAGAAACCUGUAUCUUUCUAUGCUGCUUUUAUAUCUGUAUGUAUUAGUGAUAUUUCUCUAGUAGUUAAAAAAAAAAAAAGGAAAAAAAGACUCUUUUUGGUUGUCCUCAA | 0.941
AAGUUUACCAGCUUCAAACUAUGUAAAGGACUUCACCAAGUUAGGGCCUCCUGGGUUUAUUGCAGAUUAAAGCCAUCUCAGUGAAGAUAUGCGUGCACGCACAGACAGAC | 1.12

Excerpt of the above (block 5):
Oligonucleotide | 7-mer Z-score
UAGCACG | -0.159
CUUCGGC | -0.286
ACGAGCG | 0.206
CUCCCCA | -0.242
AAGCGCU | 0.00979
CUGGCUA | -0.139
UUAGUUA | -0.18
CCACGAU | -0.128
CAAUGAA | 0.231
CAGGGAU | 0.135
CGCAUCA | -0.115
